Published values of several laboratories.
Every numbered part comes from another study and shows a few of its results, in no order. Positions count from the first letter of the parent shown.

Series 1 — target: CCND2, cyclin fold, Cln2 fusion (human); method: yeast growth competition, sequencing; sample: yeast; setting: weak parent motif; reference: not given; reading: higher = stronger binding
Starting sequence: RB1 docking peptide (human); PKPLKKLRFDIEG; partner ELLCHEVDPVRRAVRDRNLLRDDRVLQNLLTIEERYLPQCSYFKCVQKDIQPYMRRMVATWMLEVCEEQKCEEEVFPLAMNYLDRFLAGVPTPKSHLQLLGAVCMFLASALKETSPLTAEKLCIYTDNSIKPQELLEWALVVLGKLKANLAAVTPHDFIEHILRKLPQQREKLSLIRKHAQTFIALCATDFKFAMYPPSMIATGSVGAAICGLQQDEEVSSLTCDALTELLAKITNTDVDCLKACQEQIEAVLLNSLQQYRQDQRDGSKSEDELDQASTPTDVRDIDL
| Variant | normalised enrichment score |
| --- | --- |
| E12T | 0.245 |
| D10V | 0.371 |
| D10G | 1.04 |
| R8K | 0.128 |
| P1V | 0.237 |
| E12S | -0.0223 |
| F9D | 0.42 |
| K5H | 0.228 |
| I11T | -0.166 |
| K2Y | 0.457 |
| K2H | 0.218 |
| G13W | -0.0267 |
| R8T | 0.436 |
| K6H | 0.54 |
| K5R | 0.00419 |
| E12F | 0.221 |
| K5C | -0.162 |
| L4A | 0.642 |
| R8L | -0.00475 |
| P1I | -0.174 |
| P1C | 0.746 |
| R8V | 0.514 |
| K2W | 0.0893 |
| L7I | 0.383 |
| I11R | -0.396 |

Series 2 — method: RNA Bind-n-Seq; form: RNA; sample: in vitro; tested at: 365 nM; reference: no-protein control; reading: higher = stronger binding
Target: RNA binding protein fox-1 homolog 2, RRM domain, GST-SBP tag (RBFOX2, Homo sapiens, UniProt O43251-10, residues 100-194)
Setting: natural RNA segment, single round, ends assumed
All sequences stand within: GGGAGUUCUACAGUCCGACGAUC … UGGAAUUCUCGGGUGCCAA
Construct (chain): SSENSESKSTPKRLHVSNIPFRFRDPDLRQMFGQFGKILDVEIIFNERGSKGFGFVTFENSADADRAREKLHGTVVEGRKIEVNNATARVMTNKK
| Strand | RBNS enrichment (R) |
| --- | --- |
| UUCUGUAAAUCUAUUUCAUAUCUGACCCACCAAACAGAUUUCUCUUUAAUAAAAAUCCUUUUUGUAAGUUCUCUUCUCGUGGGUGUGUGGCAGCGGUGAGCACCCGCCUC | 0.622 |
| GACUAGCCAGAGGCCUGAUGGUCCCAGGUGGCUCUGGAUAUACUUUGGAUAUGGAUUUAAAUGGUCUCUAAGAGCCGGGGGUAGGGGGCAGGAAAAGUGGGUUGUCUUUG | 0.444 |
| GUUACGUAAGAAGGGUCUUUGGUAGAAGAAAUUGCUCGUGUUUACACAGCUGUGGAUGCCAUGAAGAAGCCGUGGACAUUCUUGGUGGGUGAAGCCCUAGACGAUGGAAU | 0.849 |
| UCCUCCUUGUCCUAGUUACUGCCUAUGGAGGCAGUGUUUAGAUCAAGAAGGCCUCUCUUGCUCCCAAGGGCCCUCACCAGAGGCCAGGGCUGCCAGUCACUGGUCUGGGG | 0.16 |
| CAUGGUUUUUGAUCCCAGCUCGCCCACAGCCCUGGCCCCACCUCACCCCAUAGUGGGGGACUGGAGUCGCCUUGGUGCUCAUUCCCUGAGCCCCCCAAUCCUCCUCUGUC | 0.285 |
| GUUAGAGAGAAAUUGUAGCACAUUUAAAUUAUUACUCUAAUACUCUUAGACGAUAGAUACCCAUAUUUCUCCACAAAGUCAAUGCUAUCUUUUUAACAGCACUGUAGCAU | 1.08 |
| CAUUCAUUGAUUUGCGUAUAUUGAACCAGCCUUGCAUCCCAGGGAUGAAGCCCACUUGAUCAUGGUGGAUAAGCUUUUUGAUGUGCUGCUGGAUUCGUUUUGCCAGUAUU | 0.492 |
| AAGUCUGGAUCUGGGACCCUUUCCUUCCUUCCCUGGCUUGUAACUCCACCAACCCAUCAGAAGGAGAAGGAAGGAGACUCACCUCUGCCUCAAUGUGAAUCAGACCCUAC | 0.32 |
| UUAUUUUUUUUAUUAUUAAAUGAUGUGGUCUAUGGAAAAAUAAAAAUCUGACUUAGUUUUGACUAGCUUUGAGUGCCUUUCCUUGGGAAGAGUUUGGGUGAAAGGGGAAG | 0.659 |
| CAGAACUGAGGGGCUGGCCCCAGGCAGCUCCCAGGGGGUAGAACGGCCCUGUGCUUAAGACACUCCUGCUGCCCCGUCUGAGGGUGGCAAUUAAAGUUGCUUCACAUCCU | 0.289 |
| CCCAGGAGCCAAAACUCACGCUCGGGCAGCAGCAGCUGAGGCUUGAGGAAGCUGGUGUCCUAAGACACUGAAACCCAGUGCUCAUUGGAGCUGCCAGCCACAGGUUUCUA | 0.325 |
| UCUUUUCGUGUUCUCAGUGUAUUAUGUACGUGUGUGCUGUUGCCGCUAUGAGGGCUCGGGGCUUGCAGGCUCUGAGGGCAUGUCGCAGGCGAGCUGGAAGGAAGCGCUCU | 2.42 |

Series 3 — method: protein binding microarray; form: double-stranded DNA, one strand shown; sample: in vitro; tested at: not given; reference: not given; reading: higher = stronger binding
Target: Histone acetyltransferase KAT6A, both winged helices, GST fusion (KAT6A, Homo sapiens, UniProt Q92794, residues 1-181)
Setting: 8-mer, flanks averaged, mean of 2 arrays, mostly near background
Target sequence (chain): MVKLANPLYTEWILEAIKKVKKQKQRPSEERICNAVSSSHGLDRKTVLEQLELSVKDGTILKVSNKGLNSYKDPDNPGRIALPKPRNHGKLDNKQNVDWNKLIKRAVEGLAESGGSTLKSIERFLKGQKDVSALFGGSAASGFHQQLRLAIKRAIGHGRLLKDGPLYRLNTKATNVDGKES
| Strand | E-score |
| --- | --- |
| AATGACCA | -0.135 |
| AAACAAGA | -0.118 |
| GATGGACC | -0.0628 |
| AAGCTCCC | -0.0631 |
| CCCCTCAA | -0.13 |
| ATGAGCAC | -0.121 |
| CAAGTGGC | -0.0489 |
| CGCAGGGC | 0.0975 |
| CGTGGAGA | -0.0621 |
| ACCAGCAA | -0.0508 |
| GTCCCGAA | -0.0536 |
| AGACCGTG | 0.217 |
| AGCCGTGC | 0.23 |
| CCAACGCA | 0.083 |
| AGATTAGC | -0.0213 |
| ATACTTCG | -0.0561 |
| CGAAGTTC | 0.0743 |
| AATATCCG | 0.154 |
| CTGGAATC | -0.0329 |
| CAGGTACC | -0.0931 |
| CATGGATA | -0.0756 |
| ATGTATTC | 0.00941 |
| ACGGAATA | 0.263 |
| CCTTGCAG | -0.0216 |
| TTAAGGAA | -0.164 |

Series 4 — method: protein-binding microarray; form: double-stranded DNA, one strand shown; sample: in vitro; tested at: not given; reading: higher = stronger binding
Target: Max-binding protein MNT, bHLH-zipper, MAX partner unstated (MNT, Homo sapiens, UniProt Q99583, residues 220-300)
Setting: k-mer, scored over probes, only values ≥0.25
Construct (chain): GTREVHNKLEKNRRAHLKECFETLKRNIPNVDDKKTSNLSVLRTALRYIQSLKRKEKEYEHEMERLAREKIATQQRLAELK
| Strand | E-score |
| --- | --- |
| AATCACGT | 0.428 |
| CACGTTAG | 0.357 |
| CACCGGCA | 0.254 |
| CGTGCGTA | 0.316 |
| ATGCGTGA | 0.325 |
| ACAACACG | 0.329 |
| CGTGACTC | 0.327 |
| ATTCACGC | 0.282 |
| TGACCCCA | 0.261 |
| ATGTGCCG | 0.309 |
| ATGCGCCA | 0.265 |
| AAGCATGC | 0.413 |
| GCATGACC | 0.347 |
| ACTTGCAC | 0.263 |
| ACGTGAGA | 0.379 |
| CACGCCCG | 0.319 |
| AAACCCCA | 0.268 |
| ACGTGAGC | 0.366 |

Series 5 — method: EMSA with sequencing; form: double-stranded DNA, one strand shown; sample: in vitro; tested at: 10 and 20 nM; reference: negative control set to 0; reading: higher = stronger binding
Target: Hepatocyte nuclear factor 3-alpha (Foxa1, Mus musculus, UniProt P35582, residues 1-468, full length assumed)
Setting: whole designed probe, mean of two concentrations, ends assumed
All sequences stand within: GTGAGCGGTGCCCATTGATGGGGAAC … TTTCACTGGGATCGTGGGGAC
Target sequence (chain): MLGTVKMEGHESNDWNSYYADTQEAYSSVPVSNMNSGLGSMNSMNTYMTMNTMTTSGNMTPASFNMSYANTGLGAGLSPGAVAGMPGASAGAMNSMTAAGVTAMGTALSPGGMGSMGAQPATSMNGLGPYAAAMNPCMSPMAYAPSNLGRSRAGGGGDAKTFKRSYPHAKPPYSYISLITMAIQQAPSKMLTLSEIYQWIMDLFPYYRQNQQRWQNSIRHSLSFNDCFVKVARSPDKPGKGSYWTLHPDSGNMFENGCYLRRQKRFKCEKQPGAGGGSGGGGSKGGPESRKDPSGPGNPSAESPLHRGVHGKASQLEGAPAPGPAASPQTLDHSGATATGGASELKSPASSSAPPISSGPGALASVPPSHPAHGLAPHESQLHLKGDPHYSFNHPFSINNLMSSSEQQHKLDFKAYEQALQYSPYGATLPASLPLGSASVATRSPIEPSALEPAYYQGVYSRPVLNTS
| Strand | normalised bound fraction [ratio] |
| --- | --- |
| AGTCTTTACAAATCAAAGAGACAGCACTGCTTTTGCTGAAGCGGGACAAAAATACCTCAAGGCACAACTCCTCCGTGCGCTTATCCCCTGCAGTGTAAACAGGGCCAATTCAATGGGTATTGTTTCCTTTACTTAGGCAGGATGATTTCCCTCAACTCTTAAGGAATCCAGGACTTTCCAGACCATTTCATCA | 0.153 |
| GCTGAAGAAGTATTCCACATCCGTCCAAGTGGACTATTCACTTAAGAAAACATTAATGCCATTTGCTGGCACAGATGCCCTTGCATGGCTCATAGATTACATACTGAAAAACATCTAGCTCCACTGAGCTTTTAAAATTAACTAGAGCCCTTGAACTGTCCAGGCAAAGAGAAAATCATCAGTAATATTTAAA | 0.0748 |
| ATCTTCCCCCTCTTCCTTGCCCCACCAGCTCACCTTCCCGGGTTATTTGCAGATAGGAAAATAAATAAAGCCGGGTATCCTTAACCCTCTTCTGGCGCAAACTGCTGTTTGCTCTGGATGAATCATGGTCCTTTGGCGACGCCAGGCTCCGGGAGAGCAAAGCACCGTGTCAGGGCCATGATCCGGGGTGGCC | 0.352 |
| AGGTGAATTGGCTGCTTCCATCCTGGCTTGGAACTTCAGACATAGAAGCCTTGGGACTTTCTCAGGACTTTCTCCAGATCTGACTCATGCTCAGCAAACAAGCATCTCTGTGGATCACGTGACCTTAGCCAGGGATGTTGGTGAAACTGTGTGTTGGTCTAGGTACCTAGCCCATGCTAGGTGCTCATCGAAT | 0.0992 |
| AAATGGAAATCATAATGCAGATACAGAATTTTAAAGTTGGTTATCTCCTGCTACCTCAAGTATTATTTTAGGATTAGTAAGGGAAATTACCTAAGTAAACATAGATGAATTATTCACATATAAATCTGAGATTCACTCATATATAATAATCTAATTTTTTACTAGACTTGGTGATCATAAGAAATATTATAAG | 0.458 |
| AAAACCTTCCTATCCCATGGTTATAAAGGAATCACTCATATTTTCTAAATGTGCTTTTTATATTTGTTTTAAACATTTAAAATCTTTGATCCATGTGGACTTTTTCTTGGTATGTAAAGTAAGGTACTAATTTATCAAGTGGCTGTCAGTCGTCCTAACACCTTTTATCAAAAAGTCCCCCTTTATGGTTAGG | 0.257 |
| TGATGAGAAACATGATAATTATTTAGTCTGAAAGGATCTTCTCCAATAATTTTTTTTTGTCGTGATACATTCCTGACTTCTCCACCCCCAAATGCAAACAAACCTAAATTGAGGGAAATTCTATGCAATACCTAACCATTATTCATCAAATGTACACAGGAGTACAGTGACACAATCATGGTTCACTGTAACC | 0.37 |
| TTAAGTTGGCAAAATTTAGGAAGCCAGATGATGCCAGATTTTGGCAGGACTTTGAGGATATTGGAACCATTACAGGTTCCTATGACTCAGCAATGTTTGCATAGGTTATGAGAGAACATGTAAGGAATTGTTTATTAAGGCATTATTTGAAGTGGCAATGAGTTGGAGGACATTCGCAAATCCATCACTGAGA | 0.446 |

Excerpt of the above (series 3):
| Strand | E-score |
| --- | --- |
| CCCCTCAA | -0.13 |
| CCAACGCA | 0.083 |
| GATGGACC | -0.0628 |
| ATGAGCAC | -0.121 |
| CATGGATA | -0.0756 |
| AGACCGTG | 0.217 |
| CTGGAATC | -0.0329 |
| AATATCCG | 0.154 |
| AAGCTCCC | -0.0631 |
| ACCAGCAA | -0.0508 |
| ATACTTCG | -0.0561 |
| ACGGAATA | 0.263 |
| AAACAAGA | -0.118 |
